Published values from different studies.
± marks the error that the study gave.

COc1ccc(-c2csc(N/N=C(\C)c3cc(O)cc(O)c3)n2)cc1 — deviation from initial concentration (stock and working solutions; concentration not given, 7 days, room temperature): < 10%
O=C([O-])CN1CCN(CC(=O)[O-])CCN(CC(=O)NCC2CCC(C(=O)NC(Cc3ccc4ccccc4c3)C(=O)NCCCCC(NC(=O)NC(CCC(=O)O)C(=O)O)C(=O)O)CC2)CCN(CC(=O)[O-])CC1.[44Sc+3] (stereo not drawn) — intact complex (transmetallation stability; 2 h, 37 °C, with: Ca2+ 10 mM): 97 ± 0.1%
CCCCOc1nc(N)c2[nH]c(=O)n(CCCN(CCCN3CCOCC3)Cc3cccc(CC(=O)OC)c3)c2n1 — lung concentration (rat, Brown Norway, lung; intratracheal, 0.3 mg/kg, maintained over 5 h): > 1000 nmol/kg
CN1CCC[C@]1(C)/C=C/S(=O)(=O)NC(=O)Nc1c2c(cc3c1CCC3)CCC2 — Tmax after second dose, median (human, plasma; oral, 50 mg twice daily, day 14, multiple ascending dose): 2.1 h
Cc1cn(-c2ccc(-c3cc(C)c(N[C@@H](C)c4ccc(F)cc4)nn3)nc2O[11CH3])cn1 — brain uptake (PET-MRI; male rhesus macaque, brain; intravenous, 2 mCi): 0.8 to 3 SUV
COc1ccnc(C[S+]([O-])c2nc3cc(-n4cccc4)ccc3[nH]2)c1C (stereo not drawn) — Vz/F ratio (male Sprague Dawley rats, plasma; oral, 1 mg/kg ilaprazole racemate; relative to: compound over R-ilaprazole): 0.38
CC(=O)N[C@H](CCCCN)C(=O)N[C@H](CC(C)C)C(=O)N[C@H](CCCCN)C(=O)N[C@H](CO)C(=O)N[C@H](CC(C)C)C(=O)N[C@H](CC(C)C)C(=O)N[C@H](CCCCN)C(=O)N[C@@H](C(=O)N[C@H](CC(C)C)C(=O)N[C@H](CO)C(=O)N[C@H](CCCCN)C(=O)N[C@H](C)C(=O)N[C@H](CCCCN)C(=O)N[C@H](C)C(=O)N[C@H](C)C(=O)N[C@H](CCCCN)C(=O)N[C@H](CC(C)C)C(=O)N[C@H](CCCCN)C(=O)N[C@@H](C(=O)N[C@H](CC(C)C)C(=O)N[C@H](CC(C)C)C(=O)N[C@H](CCCCN)C(=O)N[C@H](C)C(=O)N[C@H](CC(C)C)C(=O)N[C@H](CO)C(=O)N[C@H](CO)C(N)=O)[C@H](C)O)[C@H](C)O — HC50 (human erythrocytes; 18 h, pH 7.4, 37 °C, 50% hemolysis): 279 µg/mL
CC[C@H](C)[C@H](NC(=O)[C@H](C)NC(=O)[C@@H](NC(=O)[C@H](C)NC(=O)CNC(=O)OCC1c2ccccc2-c2ccccc21)[C@@H](C)O)C(=O)N[C@@H](CCCCN)C(=O)N[C@@H](CCC(N)=O)C(=O)N[C@H](C(=O)N[C@@H](CCCCN)C(=O)N[C@@H](CCCCN)C(=O)N[C@@H](CC(C)C)C(=O)N[C@@H](Cc1ccccc1)C(=O)N[C@@H](CCCCN)C(=O)N[C@@H](CCCCN)C(=O)N[C@@H](CCCCN)C(=O)NCC(=O)NCC(N)=O)C(C)C — acetonitrile at elution (reversed-phase HPLC; C18 column; hydrophobicity): 59%
O=c1c(O)c(-c2ccc(O)c(O)c2)oc2cc(O[C@@H]3O[C@H](CO)[C@@H](O)[C@H](O)[C@H]3O)cc(O)c12 — concentration decrease (human plasma; concentration not given, three freeze-thaw cycles): < 10%
COC(=O)c1ccc(CCc2cc3cc4nc(c(OC)c5[nH]c(cc6nc(cc2[nH]3)CC6(C)C)cc5CCCNC(=O)OC(C)(C)C)C(=O)C4(C)C)cc1 — kic^−1 (DMF; room temperature): 10 ns
C=C(c1ncc(C(=O)O)cn1)c1cc2c(cc1C)C(C)(C)CCC2(C)C — blood triglycerides (Sprague-Dawley rat, male; oral, 100 mg/kg, 6 h, sesame oil vehicle): 217 ± 60.1 mg/dL
COc1cc2c(cc1OC)CN(CCCCn1ccc3cc(OCC[18F])ccc31)C2 — bone uptake (male ICR mice; intravenous, 280 kBq, 60 min post-injection): 5.19 ± 0.84 %ID/g
C[Si](C)(C)C[C@@H](CN)CC(=O)O — brain Cmax (Sprague-Dawley rat, male, brain; oral, 30 mg/kg, estimated as Cmax x Kp): 1500 nM
CSc1cc(C)nc(SC)c1NC(=O)CN1CCN(CCSc2nc3ccccc3[nH]2)CC1.Cl — concentration (mouse Crl:CD1 (ICR), female, olfactory bulb; intranasal, 10 µL, 120 min, once daily for 7 days): 0 ng/g
Cn1c(=O)oc2ccc(-c3ccc(CC(C#N)NC(=O)C4CNCCCO4)c(F)c3)cc21 (stereo not drawn) — subjects with TRAE (item: blood bilirubin increased; human; 40 mg single dose, fasted): 8.3%
N=C(N)NCCC[C@@H]1NC(=O)[C@H](Cc2c[nH]c3ccccc23)NC(=O)[C@@H](CC2CCCCC2)NC(=O)[C@@H]2CCCN2C(=O)[C@@H](NC(=O)CCc2ccccc2)CCCNC1=O — elimination half-life (C57BL/6J mice, plasma; oral, 1 mg/kg): 0.331 h
CN(CCCN=Cc1ccccc1[O-])CCN(C)CCCN=Cc1ccccc1[O-].[67Ga+3] — tissue uptake ratio (rat; intravenous, 1 min; relative to: heart over liver): 1.13 ± 0.09
CCc1cc(Nc2nc(-c3ccc(-n4cnc(C)c4)c(F)c3)cs2)c(C)cc1C — AUC(0-last) (human, both sexes, plasma; oral, 400 mg, day 1, multiple dose, geometric mean): 12000 ng·h/mL
CN1CCC(N[C@@H]2CCc3[nH]c4c(C(N)=O)ccc(-c5ccccc5Cl)c4c3C2)CC1 — oral bioavailability (BALB/c mice; oral, 10 mg/kg; relative to: intravenous 2 mg/kg): 35.4%
CNc1cc(OC)c(Nc2nccc(-c3cn(C4CC4)c4ccccc34)n2)cc1NC(=O)CCSCC(N)C(=O)O (stereo not drawn) — excreted amount (human, urine and feces; 0 to 96 h urine, 0 to 240 h feces; relative to: dose): 6.83%
[11CH3]c1ccc2nc(C3CCC3)n(-c3ccc4[nH]ncc4c3)c2n1 — intact parent fraction (radio-HPLC; Sprague-Dawley rat, plasma; 30 min): 26%
CCCC[C@H](NC(=O)CNC(=O)CNC(=O)CN1CCN(CC(=O)O)CCN(CC(=O)O)CC1)C(=O)N[C@H]1CC(=O)NCCCC[C@@H](C(N)=O)NC(=O)[C@H](Cc2c[nH]c3ccccc23)NC(=O)[C@H](CCCNC(=N)N)NC(=O)[C@@H](Cc2ccccc2)NC(=O)[C@H](Cc2c[nH]cn2)NC1=O [gallium-67 labelled] — tumour to tissue ratio (female C57 mice, B16/F1 melanoma; intravenous, 0.037 MBq, 2 h; relative to: tumour over muscle): 74.5
O=C(O)C1CN(Cc2ccc(-c3noc(-c4ccc(OCC[18F])c(C(F)(F)F)c4)n3)cc2)C1 — tracer uptake (rat, spleen; intravenous, 5 min): 0.589 %ID/g
Cc1cc(O)cc(O)c1C(=O)c1c2c3c(c(O)cc(C)c3oc1=O)C(=O)c1c(O)cc(O)cc1-2 — absorption rate constant (KM mice, male, plasma; intraperitoneal, 30 mg/kg): 0.015 min⁻¹
COc1cc(NC(C)=O)c2c(c1O)-c1c(OC)c(OC)cc3c1C(C2)N(C)CC3 (stereo not drawn) — remaining compound (rat heart homogenate; 50 µg/mL, 40 d, -20 °C, long-term storage): 94 ± 2.5%
COc1ccc(NC(=O)[C@H](CCCCN)NC(=O)c2cc(NC(=O)[C@H](CCCCN)NC(=O)c3cc(NC(=O)[C@H](CCCCN)NC(=O)c4cc(NC(=O)[C@@H](N)CCCCN)ccc4OC)ccc3OC)ccc2OC)cc1C(=O)NCCC(=O)O — association midpoint concentration (UV-vis λmax shift; TBS; pH 7.4, monomer-hexamer fit, with: NaCl 0.15 M): 0.06 mM
NC[C@@H](C(=O)Nc1ccc(-c2cn[nH]c2)cc1)c1ccccc1 — total eye irritation score (OECD 405 eye irritation; New Zealand White rabbit, eye; topical, 0.1%, 8 h (day 1); direction not given): 0
C#CCN(CCCNC(=O)CCCCC[N+]1=C(/C=C/C2=C(Cl)C(=C/C=C3\N(CCCCCC(=O)[O-])c4ccccc4C3(C)C)/CCC2)C(C)(C)c2ccccc21)CCCOc1ccc(Cl)cc1Cl — concentration (mouse plasma; 1 µg/mL nominal, 4 h, on ice): 940 ± 100 ng/mL
COc1cccc(C=NCCCN(C)CCN(C)CCCN=Cc2cccc(OC)c2[O-])c1[O-].[67Ga+3] — tissue uptake ratio (rat; intravenous, 1 min; relative to: heart over lung): 1.85 ± 0.17
CCCCCCCC[S+]([O-])CC(=O)C(F)(F)F (stereo not drawn) — hydrate fraction (19F NMR; chloroform): 90 to 96%
CC(C)(O)c1ncc([S@](N)(=O)=NC(=O)Nc2c3c(cc4c2CCC4)CCC3)s1 — half-life (healthy human volunteers, plasma; oral, 30 mg once daily, day 14, capsule formulation): 15.9 h
Cc1ccc(OCC(=O)N(Cc2cccs2)c2ccn[nH]2)cc1 — Tmax (female Sprague-Dawley rat, plasma; oral, 10 mg/kg, single dose): 0.25 h
COC(=O)C(c1ccccc1Cl)N1CCC(SCC(=O)c2cccc(OC)c2)C(=CC(=O)O)C1 (mixture of isomers) — deviation from nominal (HPLC-MS/MS; feline EDTA plasma; 100 ng/mL, 12 h, -20 °C, storage stability): 6%

Excerpt of the above:
O=C(O)C1CN(Cc2ccc(-c3noc(-c4ccc(OCC[18F])c(C(F)(F)F)c4)n3)cc2)C1 — tracer uptake (rat, spleen; intravenous, 5 min): 0.589 %ID/g
COc1ccnc(C[S+]([O-])c2nc3cc(-n4cccc4)ccc3[nH]2)c1C (stereo not drawn) — Vz/F ratio (male Sprague Dawley rats, plasma; oral, 1 mg/kg ilaprazole racemate; relative to: compound over R-ilaprazole): 0.38
Cn1c(=O)oc2ccc(-c3ccc(CC(C#N)NC(=O)C4CNCCCO4)c(F)c3)cc21 (stereo not drawn) — subjects with TRAE (item: blood bilirubin increased; human; 40 mg single dose, fasted): 8.3%
